# Assay results pooled from the literature.
# Lines come from different studies, so protocols differ. ± marks the error that the study gave.
# lasR: Transcriptional activator protein LasR (lasR, Pseudomonas aeruginosa, UniProt P25084)
# Sequence of UniProt P25084 (whole entry, looked up): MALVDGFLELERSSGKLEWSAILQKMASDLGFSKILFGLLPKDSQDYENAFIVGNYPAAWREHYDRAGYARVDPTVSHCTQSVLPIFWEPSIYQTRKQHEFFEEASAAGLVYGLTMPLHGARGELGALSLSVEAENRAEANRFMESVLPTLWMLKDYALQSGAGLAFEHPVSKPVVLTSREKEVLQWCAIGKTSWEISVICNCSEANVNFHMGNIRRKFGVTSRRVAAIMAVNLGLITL
# APP: Amyloid-beta precursor protein (APP, Homo sapiens, UniProt P05067)
# Sequence of UniProt P05067 (whole entry, looked up): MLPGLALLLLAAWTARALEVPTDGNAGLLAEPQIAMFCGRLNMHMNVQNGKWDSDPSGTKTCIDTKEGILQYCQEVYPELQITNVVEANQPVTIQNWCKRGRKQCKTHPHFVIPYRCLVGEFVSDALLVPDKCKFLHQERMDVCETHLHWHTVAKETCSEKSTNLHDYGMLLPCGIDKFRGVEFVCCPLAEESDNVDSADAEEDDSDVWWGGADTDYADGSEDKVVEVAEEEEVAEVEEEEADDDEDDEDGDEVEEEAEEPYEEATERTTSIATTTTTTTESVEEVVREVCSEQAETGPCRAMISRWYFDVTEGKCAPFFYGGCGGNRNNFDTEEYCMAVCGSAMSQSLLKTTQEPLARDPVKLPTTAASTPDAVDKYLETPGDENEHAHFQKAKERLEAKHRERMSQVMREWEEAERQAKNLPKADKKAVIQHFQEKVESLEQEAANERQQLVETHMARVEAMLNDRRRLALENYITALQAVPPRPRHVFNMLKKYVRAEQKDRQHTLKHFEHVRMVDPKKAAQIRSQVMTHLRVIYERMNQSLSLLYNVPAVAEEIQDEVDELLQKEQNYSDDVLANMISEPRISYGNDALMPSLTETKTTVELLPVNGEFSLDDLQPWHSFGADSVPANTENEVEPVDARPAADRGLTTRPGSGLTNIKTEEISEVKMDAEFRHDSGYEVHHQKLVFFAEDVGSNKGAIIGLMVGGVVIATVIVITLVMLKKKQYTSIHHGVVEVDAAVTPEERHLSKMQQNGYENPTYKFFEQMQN
# Sequence of UniProt P21397 (whole entry, looked up): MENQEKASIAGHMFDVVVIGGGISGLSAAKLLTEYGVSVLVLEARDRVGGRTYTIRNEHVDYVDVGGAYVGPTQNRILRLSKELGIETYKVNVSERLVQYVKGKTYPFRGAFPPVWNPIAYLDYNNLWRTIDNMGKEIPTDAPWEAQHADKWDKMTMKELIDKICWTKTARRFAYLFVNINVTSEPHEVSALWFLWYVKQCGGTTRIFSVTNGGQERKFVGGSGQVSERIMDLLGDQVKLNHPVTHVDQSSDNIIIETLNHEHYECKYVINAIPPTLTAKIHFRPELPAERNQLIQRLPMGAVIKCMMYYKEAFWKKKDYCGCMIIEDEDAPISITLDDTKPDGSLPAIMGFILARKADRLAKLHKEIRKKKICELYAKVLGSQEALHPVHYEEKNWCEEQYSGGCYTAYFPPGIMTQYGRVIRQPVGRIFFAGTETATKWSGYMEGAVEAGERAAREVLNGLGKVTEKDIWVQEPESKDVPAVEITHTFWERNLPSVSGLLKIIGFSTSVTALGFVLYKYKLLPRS
# Sequence of UniProt Q0QF01 (whole entry, looked up): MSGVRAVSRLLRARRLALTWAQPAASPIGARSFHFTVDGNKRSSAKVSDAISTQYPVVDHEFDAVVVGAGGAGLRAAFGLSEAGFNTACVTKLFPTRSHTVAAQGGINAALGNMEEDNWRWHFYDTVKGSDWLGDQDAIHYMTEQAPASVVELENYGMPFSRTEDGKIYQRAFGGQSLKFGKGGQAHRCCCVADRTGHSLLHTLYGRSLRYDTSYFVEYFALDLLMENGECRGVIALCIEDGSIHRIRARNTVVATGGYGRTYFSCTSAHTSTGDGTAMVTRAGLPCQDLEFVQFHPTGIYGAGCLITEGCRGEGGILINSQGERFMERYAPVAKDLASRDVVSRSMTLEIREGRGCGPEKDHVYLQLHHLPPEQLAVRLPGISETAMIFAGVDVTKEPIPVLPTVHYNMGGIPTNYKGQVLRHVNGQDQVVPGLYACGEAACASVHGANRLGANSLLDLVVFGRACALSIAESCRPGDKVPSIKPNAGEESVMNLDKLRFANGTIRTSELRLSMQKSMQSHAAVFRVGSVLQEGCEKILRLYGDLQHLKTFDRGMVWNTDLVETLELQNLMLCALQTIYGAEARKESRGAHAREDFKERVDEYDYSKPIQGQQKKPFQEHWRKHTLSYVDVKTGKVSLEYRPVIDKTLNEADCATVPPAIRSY
# Sequence of UniProt A5GZW8 (whole entry, looked up): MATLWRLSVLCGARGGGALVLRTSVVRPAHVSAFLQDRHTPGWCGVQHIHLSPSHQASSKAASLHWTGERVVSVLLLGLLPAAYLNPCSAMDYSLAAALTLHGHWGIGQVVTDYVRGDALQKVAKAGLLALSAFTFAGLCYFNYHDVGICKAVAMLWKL
# Sequence of UniProt P43403 (whole entry, looked up): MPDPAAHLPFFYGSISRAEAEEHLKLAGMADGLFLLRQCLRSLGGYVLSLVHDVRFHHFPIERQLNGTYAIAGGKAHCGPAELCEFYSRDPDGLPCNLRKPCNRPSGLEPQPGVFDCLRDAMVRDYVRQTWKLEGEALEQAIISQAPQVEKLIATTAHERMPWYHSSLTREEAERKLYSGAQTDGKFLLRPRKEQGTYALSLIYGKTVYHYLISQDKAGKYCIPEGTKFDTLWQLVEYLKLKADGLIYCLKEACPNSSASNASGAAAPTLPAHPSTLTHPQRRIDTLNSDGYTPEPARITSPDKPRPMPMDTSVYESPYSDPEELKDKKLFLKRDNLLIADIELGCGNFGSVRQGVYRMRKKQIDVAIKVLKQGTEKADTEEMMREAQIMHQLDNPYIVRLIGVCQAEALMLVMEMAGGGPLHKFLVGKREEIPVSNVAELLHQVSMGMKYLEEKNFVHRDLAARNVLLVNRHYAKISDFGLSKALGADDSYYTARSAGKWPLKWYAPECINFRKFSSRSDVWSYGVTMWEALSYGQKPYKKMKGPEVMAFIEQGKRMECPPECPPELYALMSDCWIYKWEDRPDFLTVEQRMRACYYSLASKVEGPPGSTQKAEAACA
# Sequence of UniProt D0VWV4 (whole entry, looked up): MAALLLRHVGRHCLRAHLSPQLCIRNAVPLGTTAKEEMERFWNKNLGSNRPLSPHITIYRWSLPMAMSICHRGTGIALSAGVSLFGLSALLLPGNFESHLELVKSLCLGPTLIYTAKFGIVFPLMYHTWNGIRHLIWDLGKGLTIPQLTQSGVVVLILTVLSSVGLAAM
# Sequence of UniProt Q007T0 (whole entry, looked up): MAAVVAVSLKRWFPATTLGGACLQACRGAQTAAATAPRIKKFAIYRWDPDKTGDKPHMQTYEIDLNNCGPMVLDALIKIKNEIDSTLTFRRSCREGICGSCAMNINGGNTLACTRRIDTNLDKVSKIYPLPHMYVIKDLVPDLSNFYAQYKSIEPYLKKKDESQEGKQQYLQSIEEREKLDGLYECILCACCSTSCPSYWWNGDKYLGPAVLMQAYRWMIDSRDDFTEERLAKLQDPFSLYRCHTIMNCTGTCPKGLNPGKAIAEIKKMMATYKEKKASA
# Sequence of UniProt P01258 (whole entry, looked up): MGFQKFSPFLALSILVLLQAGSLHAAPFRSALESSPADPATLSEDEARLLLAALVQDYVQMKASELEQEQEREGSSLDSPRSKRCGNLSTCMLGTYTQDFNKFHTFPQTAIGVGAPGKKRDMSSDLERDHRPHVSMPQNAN
SMILES,target,assay,test system,conditions,inhibition
CCCCCCc1cn(-c2cccc(C(=O)N[C@H]3CCOC3=O)c2)nn1,lasR,"reporter gene, antagonist",,"10 µM, with: OdDHL 10 nM",21%
O=C(Nc1ccccc1Nc1ccccc1)c1cccnc1Cl,"Succinate dehydrogenase complex (Sus scrofa, UniProt A5GZW8+D0VWV4+Q007T0+Q0QF01)","enzyme activity, double-antibody sandwich ELISA",,1 µM,39.4%
O=[N+]([O-])c1ccc(/N=N/c2ccc3nc(-c4ccccc4)cc(-c4ccccc4)c3c2)cc1,APP,"amyloid aggregation, inhibitor, fluorescence",,25 µM,66%
NC1CC1c1ccc(NC(=O)C(CCc2ccccc2)NC(=O)OCc2ccccc2)cc1 (centres unmarked),"Amine oxidase [flavin-containing] A (MAOA, Homo sapiens, UniProt P21397)","enzyme activity, inhibitor, HRP-coupled",,"100 µM, with: kynuramine",87%
CC[C@H](C)[C@@H]1NC(=O)CNC(=O)[C@H](CCSC)NC(=O)[C@H](C(C)C)NC(=O)[C@H]([C@@H](C)O)NC(=O)[C@@H]2CSSC[C@@H]3NC(=O)[C@H](Cc4c[nH]cn4)NC(=O)[C@@H](NC(=O)[C@@H](NC(=O)[C@H](Cc4ccccc4)NC(=O)[C@H](C)N)[C@@H](C)O)CSSC[C@@H](C(=O)N[C@@H](CC(C)C)C(=O)O)NC(=O)[C@H](CSSC[C@H](NC(=O)[C@H](CO)NC(=O)[C@H](CCCNC(=N)N)NC(=O)[C@H](CCCNC(=N)N)NC3=O)C(=O)N[C@@H](Cc3ccc(O)cc3)C(=O)N[C@@H](CO)C(=O)N[C@@H]([C@@H](C)O)C(=O)N[C@@H](CCC(=O)O)C(=O)N[C@@H](Cc3ccc(O)cc3)C(=O)N[C@@H](CO)C(=O)N[C@@H](Cc3ccc(O)cc3)C(=O)NCC(=O)N[C@@H]([C@@H](C)O)C(=O)N2)NC(=O)[C@H](Cc2ccccc2)NC(=O)[C@H](CCCNC(=N)N)NC(=O)[C@H](Cc2c[nH]cn2)NC(=O)[C@H](CC(N)=O)NC1=O,"CALCA, calcitonin (Homo sapiens, UniProt P01258)","amyloid fibril formation, inhibitor, ThT fluorescence",,"concentration not given, 24 to 30 h, 37 °C, compound ratio 1:1, with: calcitonin 20 µM",73%
O=C(N[C@H]1CCOC1=O)c1ccc(-n2cc(C3CCCC3)nn2)cc1,lasR,"reporter gene, antagonist",,"10 µM, with: OdDHL 10 nM",21%
CC(=O)NC(Cc1ccc(Br)c(Cl)c1)C(=O)N[C@@H](C)C(=O)N1CCC[C@H]1C(=O)N1CCC[C@H]1C(=O)N[C@@H](CCC(=O)O)C(=O)N[C@@H](Cc1c[nH]cn1)C(=O)N[C@@H](CO)C(=O)N[C@H](C(=O)N[C@@H](C)C(N)=O)[C@@H](C)OP(=O)(O)O (some centres unmarked),"Tyrosine-protein kinase ZAP-70 (ZAP70, Homo sapiens, UniProt P43403)","enzyme activity, inhibitor",,10 µM,0.71%
CCn1c2ccccc2c2cc(C(O)c3ccc(C)c4ccccc34)ccc21 (centres unmarked),tubulin colchicine site,"[3H]colchicine binding, competition binding",purified tubulin,5 µM,70%
CCN(CC)CCOc1ccc(-c2nnn(Cc3ccc(OC)cc3)c2N)cc1,"Alpha-2A adrenergic receptor (ADRA2A, Homo sapiens, UniProt P08913)",radioligand binding,HEK293,10 µM,60.9%
CCCCCc1nc2ccc(/N=N/c3ccc([N+](=O)[O-])cc3)cc2c(-c2ccccc2)c1I,APP,"fibril formation, ThT fluorescence",PBS,"concentration not given, 24 h, 37 °C, with: Aβ42 25 µM",74.7 ± 2.3%
O=C(N[C@H]1CCOC1=O)c1ccc(-n2cc(C3CC3)nn2)cc1,lasR,"reporter gene, antagonist",,"10 µM, with: OdDHL 10 nM",10%

# A few entries again:
SMILES,target,assay,test system,conditions,inhibition
CC(=O)NC(Cc1ccc(Br)c(Cl)c1)C(=O)N[C@@H](C)C(=O)N1CCC[C@H]1C(=O)N1CCC[C@H]1C(=O)N[C@@H](CCC(=O)O)C(=O)N[C@@H](Cc1c[nH]cn1)C(=O)N[C@@H](CO)C(=O)N[C@H](C(=O)N[C@@H](C)C(N)=O)[C@@H](C)OP(=O)(O)O (some centres unmarked),"Tyrosine-protein kinase ZAP-70 (ZAP70, Homo sapiens, UniProt P43403)","enzyme activity, inhibitor",,10 µM,0.71%
